# Assay results gathered from unrelated publications.
# A part holds a random share of what one study measured. Positions count from the first letter of the parent shown.

# Set 1 — method: aptamer microarray, sandwich; form: DNA with 2'F-ANA; matrix: in vitro; tested at: 200 nM; together with: Cy3 exosite-II aptamer, 400 nM; reading: higher = stronger binding; sequence: GGTTGGTGTGGTTGG
# Target: Prothrombin, mature alpha-thrombin (F2, Homo sapiens, UniProt P00734)
# Notes: whole 15-mer aptamer, many near background
Modification,mean fluorescence intensity
2'F-ANA at 1 5 6 7 8 9 10 13,46.3 a.u.
2'F-ANA at 1 2 3 6 9 12 13 14,79 a.u.
2'F-ANA at 3 5 7 8 10 11 13 14,51.3 a.u.
2'F-ANA at 1 3 5 6 7 10,49.2 a.u.
2'F-ANA at 1 3 7 8 11 12 13 14,132 a.u.
2'F-ANA at 2 3 5 7 8 10 11,54.6 a.u.
2'F-ANA at 1 6 9 10,53.2 a.u.
2'F-ANA at 3 4 7 9 13,532 a.u.
2'F-ANA at 3 4 7 8 10 14,260 a.u.
2'F-ANA at 2 4 6 8 9 10 11 12 15,132 a.u.

# Set 2 — method: RNA Bind-n-Seq; form: RNA; matrix: in vitro; tested at: 365 nM; baseline: no-protein control; reading: higher = stronger binding
# Target: RNA binding protein fox-1 homolog 2, RRM domain, GST-SBP tag (RBFOX2, Homo sapiens, UniProt O43251-10, residues 100-194)
# Notes: natural RNA segment, single round, ends assumed
# Constant ends, left off below: GGGAGUUCUACAGUCCGACGAUC … UGGAAUUCUCGGGUGCCAA
# Target sequence (chain): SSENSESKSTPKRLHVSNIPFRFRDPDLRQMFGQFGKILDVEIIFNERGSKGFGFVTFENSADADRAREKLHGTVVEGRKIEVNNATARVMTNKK
Sequence,RBNS enrichment (R)
UUCUGAGAGUGUGACUUUUCAAGGCGAAUGAUGGGGAAGGGUUCCCCAGUCCCCACAGUGGCCCCACCUCUGGGCCCUGCACCAGAGCCCUUCUGUGUCACGGCGGGCUG,0.343
ACACUAUCUUGACACUUGAUAGAAGAGCCUAUUAGGAGUCACAGUGGUUUCGUAGAGUAAAACCCAAGUGAGGAGGGAUGUGUGGGGUUUCCAUUAGGAAAUAAUUUCGU,0.631
GAGCAGCACAAAUAACCUGGAGUUGUUUGGCCUUGGUUCCUUAAGUCCUGUGUUCAAGACACUGAAGCUAUCUCCCAUGUUCUGUGUGAGAUUUCUGAGUAAGAUCUGGC,0.333
CCUUGAAUAGCUCUGCUUGGACAAUGGGGUUGGGGAAUAGGGUUGUCUUUCCUAUGAAAAUGCCAUCUGUAGACCUUGUGAGUCAGCCGUCCAGAUGUUUGCAGGUGAAU,0.441
UGAUUUCUCUUCUCUGGAGGCUUUGUGUAAGAAAAUCAUUAAAGAAAAACAAGCUUUUGAAAGACUGGAAGUUAAGAAAGAAACUUUACUGGCAAUGUUUAAGGACAACA,0.76
AGCCUGCUUCCAUCCAUGGGUGGGAAGACUUCAGCACAAAGGAAAGACUAAUUCUUGUCAGGCAUUUUUGAAAAGGCUGAUUAUGUGUAUCAAGGUACAGCAUCGUAGGG,0.37
GGGACAGACCAGCCCCAGCCGCUGGGCCAACUUCCAAUCAUUCCAGCUAGAAGAGCUUCCCCCUGACACCCUGUGACUGAGCCUGUGUCCUGUCUGCCUGCCCAGCCAUG,0.94
AAUGGGAAUUCAUAAAGCAAGUUAGGAUUCACAAAUGUAGUGACCUAGUCCUUGGAGCUAAACUGGGAGUGGGUGCCAGGUGGAGGGUAGCAGGUCUGACCAGCCCUACA,1.8

# Set 3 — target: CCNA1, cyclin fold, Cln2 fusion (human); method: yeast growth competition, sequencing; matrix: yeast; notes: weak parent motif; baseline: not given; reading: higher = stronger binding
# Starting sequence: MICAL3 docking peptide (human); LQLRRQLSFSEDS; partner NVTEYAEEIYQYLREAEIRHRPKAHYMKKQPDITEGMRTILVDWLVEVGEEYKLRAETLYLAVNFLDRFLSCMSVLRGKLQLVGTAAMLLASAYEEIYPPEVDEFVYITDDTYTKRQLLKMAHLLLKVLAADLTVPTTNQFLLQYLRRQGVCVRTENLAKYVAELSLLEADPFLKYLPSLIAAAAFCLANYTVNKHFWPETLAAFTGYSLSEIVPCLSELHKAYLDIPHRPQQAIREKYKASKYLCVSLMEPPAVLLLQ
Substitution,normalised enrichment score
L7E,0.292
L7I,0.365
Q2F,0.269
R4T,-0.0953
L7Q,0.0127
R5S,-0.0496
S10N,0.423

# Mixed results
Molecule,target,assay,system,conditions,how to read,quantity,value
"PhoQ, residues 284 288 289 292 302 303 SSCCRF","PhoP, residues 12 14 15 18 19 NYFTV (Escherichia coli, UniProt P23836)","Sort-seq, measured: YFP reporter",E. coli,"PhoQ-PhoP variant library, together with: 10 µM Mg2+","baseline: high Mg2+ state, higher = stronger signaling",fold induction,10.8

# For quick reference, copied from above (set 2):
Sequence,RBNS enrichment (R)
AGCCUGCUUCCAUCCAUGGGUGGGAAGACUUCAGCACAAAGGAAAGACUAAUUCUUGUCAGGCAUUUUUGAAAAGGCUGAUUAUGUGUAUCAAGGUACAGCAUCGUAGGG,0.37
UUCUGAGAGUGUGACUUUUCAAGGCGAAUGAUGGGGAAGGGUUCCCCAGUCCCCACAGUGGCCCCACCUCUGGGCCCUGCACCAGAGCCCUUCUGUGUCACGGCGGGCUG,0.343
